Assay results gathered from unrelated publications.
Protocols differ between the studies behind these lines. ± gives the spread as reported.

| SMILES | test | system | setting | tissue uptake |
| --- | --- | --- | --- | --- |
| O=C([O-])c1cccc(CN(CCN(Cc2cn(Cc3ccccc3)nn2)Cc2cccc(C(=O)[O-])n2)Cc2cn(Cc3ccccc3)nn2)n1.[64Cu+2] | – | healthy athymic nude mice, large intestine | intravenous, 4 h | 21.1 %ID/g |
| O=C(NCC1OC2CCC=CCCC2O1)c1ccc([18F])nc1 (stereo not drawn) | – | female BALB/c nude mice, kidneys | intravenous, 10 min | 14.5 ± 3.2 %ID/g |
| CCCC[C@H](NC(=O)CNC(=O)CNC(=O)CN1CCN(CC(=O)O)CCN(CC(=O)O)CC1)C(=O)N[C@H]1CC(=O)NCCCC[C@@H](C(N)=O)NC(=O)[C@H](Cc2c[nH]c3ccccc23)NC(=O)[C@H](CCCNC(=N)N)NC(=O)[C@@H](Cc2ccccc2)NC(=O)[C@H](Cc2c[nH]cn2)NC1=O [gallium-67 labelled] | – | female C57 mice, B16/F1 melanoma, skin | intravenous, 0.037 MBq, 4 h | 0.65 ± 0.24 %ID/g |
| CCCC[C@@H]1NC(=O)[C@@H](NC(=O)[C@H](CCC(=O)O)NC(=O)CNC(=O)CN2CCN(CC(=O)O)CCN(CC(=O)O)CCN(CC(=O)O)CC2)CCCCNC(=O)C[C@@H](C(N)=O)NC(=O)[C@H](C(C)C)NC(=O)[C@@H]2CCCN2C(=O)[C@H](CCCNC(=N)N)NC(=O)CNC(=O)[C@H](Cc2c[nH]c3ccccc23)NC(=O)[C@H](CCCNC(=N)N)NC(=O)[C@@H](Cc2ccccc2)NC(=O)[C@H](Cc2c[nH]cn2)NC(=O)[C@H](CCC(=O)O)NC1=O [gallium-67 labelled] | – | C57 mice with B16/F1 melanoma, blood | intravenous, 2 h | 0.05 ± 0.04 %ID/g |
| O=C([O-])CN1CCN(CC(=O)[O-])CCN(CC(=O)NCCc2ccc3c(c2)C2C=CCC2C(c2cc4c(cc2Br)OCO4)N3)CCN(CC(=O)[O-])CC1.[111In+3] (stereo not drawn) | – | mice with Hec50 tumour xenograft, spleen | 2 h, added: G-1 5 µg blocking | 0.91 ± 0.71 %ID/g |
| CCCC[C@H](NC(=O)CN1CCC(NC(=O)CN2CCN(CC(=O)O)CCN(CC(=O)O)CCN(CC(=O)O)CC2)CC1)C(=O)N[C@H]1CC(=O)NCCCC[C@@H](C(N)=O)NC(=O)[C@H](Cc2c[nH]c3ccccc23)NC(=O)[C@H](CCCNC(=N)N)NC(=O)[C@@H](Cc2ccccc2)NC(=O)[C@H](Cc2c[nH]cn2)NC1=O [gallium-68 labelled] | – | C57BL/6J mice male B16-F10 tumour, stomach | 2 h post injection, unblocked | 0.8 ± 0.2 %ID/g |
| N=C(N)NCCC[C@@H]1NC(=O)[C@H](CCCCNC(=O)CON=C[C@H](F)[C@@H](O)[C@H](O)[C@H](O)CO)NC(=O)[C@@H](Cc2ccc(O)cc2)NC(=O)[C@H](CC(=O)O)NC(=O)CNC1=O [fluorine-18 labelled] | – | nude mice U-87 MG tumour, stomach | intravenous, 0.5 h | 0.17 ± 0.03 %ID/g |
| CCCC[C@H](NC(=O)CNC(=O)CNC(=O)CN1CCN(CC(=O)O)CCN(CC(=O)O)CCN(CC(=O)O)CC1)C(=O)N[C@H]1CC(=O)NCCCC[C@@H](C(N)=O)NC(=O)[C@H](Cc2c[nH]c3ccccc23)NC(=O)[C@H](CCCNC(=N)N)NC(=O)[C@@H](Cc2ccccc2)NC(=O)[C@H](Cc2c[nH]cn2)NC1=O [gallium-67 labelled] | – | C57 mice, female, B16/F1 melanoma, intestines | intravenous, 0.037 MBq, 2 h | 1.52 ± 1.14 %ID |
| CN1C(=O)[C@@H](Cc2ccc(O)c(I)c2)NC(=O)CNC(=O)[C@H](Cc2ccc3ccccc3c2)NC(=O)[C@H](CCCNC(=N)N)NC(=O)[C@H]1CCCNC(=O)c1ccc(CNC(=O)CN2CCN(CC(=O)O)CCN(CC(=O)O)CCN(CC(=O)O)CC2)cc1 [lutetium-177 labelled] | refers to: 177Lu radioactivity | female CB-17 SCID mice, Daudi xenograft, stomach | intravenous, 0.16 nmol per mouse, 48 h | 0.12 ± 0.02 %ID/g |

Excerpt of the above:
| SMILES | test | system | setting | tissue uptake |
| --- | --- | --- | --- | --- |
| O=C([O-])c1cccc(CN(CCN(Cc2cn(Cc3ccccc3)nn2)Cc2cccc(C(=O)[O-])n2)Cc2cn(Cc3ccccc3)nn2)n1.[64Cu+2] | – | healthy athymic nude mice, large intestine | intravenous, 4 h | 21.1 %ID/g |
